Published values gathered from unrelated publications.
Numbered parts are unrelated; each lists some results of a single study. Values joined by “and” are separate records of one study, mostly repeats; a detail may differ. ≈ marks a conversion by molar mass, not a printed value.
UniProt Q8C7D2, sequence (whole entry, unmodified, looked up): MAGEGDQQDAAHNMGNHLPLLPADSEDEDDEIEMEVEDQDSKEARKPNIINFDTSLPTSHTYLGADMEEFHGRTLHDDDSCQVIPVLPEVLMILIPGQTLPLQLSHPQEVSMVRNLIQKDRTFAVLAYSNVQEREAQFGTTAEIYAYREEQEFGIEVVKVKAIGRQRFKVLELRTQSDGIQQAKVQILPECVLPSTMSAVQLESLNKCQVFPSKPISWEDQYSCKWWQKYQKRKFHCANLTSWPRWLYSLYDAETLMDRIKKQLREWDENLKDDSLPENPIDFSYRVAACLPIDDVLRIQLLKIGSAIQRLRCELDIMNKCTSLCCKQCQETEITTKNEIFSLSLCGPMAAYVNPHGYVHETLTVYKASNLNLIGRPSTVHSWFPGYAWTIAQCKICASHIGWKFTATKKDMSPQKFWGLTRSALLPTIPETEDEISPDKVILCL
UniProt P81183, sequence (whole entry, unmodified, looked up): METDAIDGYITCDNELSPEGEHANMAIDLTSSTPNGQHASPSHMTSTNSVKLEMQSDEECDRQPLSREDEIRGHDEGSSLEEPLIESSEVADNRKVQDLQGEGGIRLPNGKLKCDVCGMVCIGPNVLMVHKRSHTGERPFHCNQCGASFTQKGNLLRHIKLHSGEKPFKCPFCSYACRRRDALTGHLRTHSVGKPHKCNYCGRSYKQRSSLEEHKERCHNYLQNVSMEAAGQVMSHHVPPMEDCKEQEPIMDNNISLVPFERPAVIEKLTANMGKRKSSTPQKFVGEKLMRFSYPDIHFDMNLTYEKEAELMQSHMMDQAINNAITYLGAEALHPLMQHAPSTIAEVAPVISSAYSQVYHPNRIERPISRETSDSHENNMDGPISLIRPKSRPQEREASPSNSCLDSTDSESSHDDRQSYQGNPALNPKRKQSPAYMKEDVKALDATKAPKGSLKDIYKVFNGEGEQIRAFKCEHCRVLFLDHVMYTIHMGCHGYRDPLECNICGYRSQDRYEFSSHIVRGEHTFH

Block 1
SMILES: CCCCC[C@@H]1CC(=O)N[C@@H](C(C)C)C(=O)N[C@H](CCCNC(=N)N)C(=O)N[C@@H](CO)C(=O)NCC(=O)N(C)[C@H](Cc2ccccc2)C(=O)N[C@@H](CC(C)C)C(=O)N[C@H](CCCNC(=N)N)C(=O)N[C@@H](CC(N)=O)C(=O)N[C@H](C(C)C)C(=O)N[C@H](Cc2c[nH]c3ccccc23)C(=O)NCCCC(=O)O1
Organism: Staphylococcus aureus
Strain: USA300
The MIC was > 64 µg/mL (added: menaquinone 64 µg/mL).
added: menaquinone 0.5 µg/mL — MIC: 8 µg/mL (≈ 5.49 µM).
The MIC was 64 µg/mL (≈ 43.9 µM) (added: menaquinone 8 µg/mL).
The MIC was 16 µg/mL (≈ 11 µM) (added: menaquinone 1 µg/mL).
added: menaquinone 0.25 µg/mL — MIC: 8 µg/mL (≈ 5.49 µM).

Block 2
SMILES: Cn1cc(-c2cccc(CN3CCC4(CC3)COc3c4ccc4c3CN([C@H]3CCC(=O)NC3=O)C4=O)c2)cn1
Action: degrader
CRBN/Zinc finger protein Helios: CRBN/Zinc finger protein Helios (Homo sapiens, UniProt Q96SW2+Q9UKS7)
UniProt Q96SW2, sequence (whole entry, looked up): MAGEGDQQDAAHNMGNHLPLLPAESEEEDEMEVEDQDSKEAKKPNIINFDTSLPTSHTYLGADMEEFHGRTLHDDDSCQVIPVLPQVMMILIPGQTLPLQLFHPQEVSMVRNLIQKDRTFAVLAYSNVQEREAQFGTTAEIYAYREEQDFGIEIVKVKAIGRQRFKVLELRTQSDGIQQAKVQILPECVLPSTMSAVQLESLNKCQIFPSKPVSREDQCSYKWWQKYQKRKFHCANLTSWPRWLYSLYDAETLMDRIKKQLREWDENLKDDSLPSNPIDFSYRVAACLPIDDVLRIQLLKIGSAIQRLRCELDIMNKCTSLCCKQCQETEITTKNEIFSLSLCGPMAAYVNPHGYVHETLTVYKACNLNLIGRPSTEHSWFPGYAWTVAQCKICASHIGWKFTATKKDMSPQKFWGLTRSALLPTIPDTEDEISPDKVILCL
UniProt Q9UKS7, sequence (whole entry, looked up): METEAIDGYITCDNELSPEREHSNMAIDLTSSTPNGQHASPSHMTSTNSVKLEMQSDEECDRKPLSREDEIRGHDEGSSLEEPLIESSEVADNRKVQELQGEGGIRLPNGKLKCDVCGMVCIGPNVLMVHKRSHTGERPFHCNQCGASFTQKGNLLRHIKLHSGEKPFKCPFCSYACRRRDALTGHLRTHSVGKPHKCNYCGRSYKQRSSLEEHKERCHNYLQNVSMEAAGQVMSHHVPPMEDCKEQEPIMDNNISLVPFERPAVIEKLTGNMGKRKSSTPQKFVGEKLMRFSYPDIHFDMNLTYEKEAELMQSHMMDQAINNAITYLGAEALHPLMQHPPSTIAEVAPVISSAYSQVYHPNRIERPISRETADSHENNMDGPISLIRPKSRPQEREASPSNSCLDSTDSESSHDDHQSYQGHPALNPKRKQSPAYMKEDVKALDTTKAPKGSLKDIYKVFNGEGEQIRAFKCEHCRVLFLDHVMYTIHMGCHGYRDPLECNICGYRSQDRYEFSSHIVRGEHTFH
The protein remaining was 74.7% and 72% (CRBN/Zinc finger protein Helios; HiBiT; HEK293; 0.1524 nM, 6 h).
It gave 8.18% and 9.83% for protein remaining (CRBN/Zinc finger protein Helios; HiBiT; HEK293; 1000 nM).
For Ikzf2/Crbn (Mus musculus, UniProt P81183+Q8C7D2, I391V); Crbn I391V mouse, spleen; 100 mg/kg, 24 h: protein remaining read 18% and 16% and 19% and 9%.
CRBN/Zinc finger protein Helios; HiBiT; HEK293; 0.1524 nM — protein remaining: 93.6% and 91.5%.
CRBN/Zinc finger protein Helios; HiBiT; HEK293; 0.1524 nM, 0.5 h — protein remaining: 89.8% and 103%.
CRBN/Zinc finger protein Helios; HiBiT; HEK293; 111.1 nM — protein remaining: 8.8% and 10.5%.
The protein remaining was 34.2% and 35.8% (CRBN/Zinc finger protein Helios; HiBiT; HEK293; 1.372 nM, 6 h).
The protein remaining was 23.5% and 26.2% (CRBN/Zinc finger protein Helios; HiBiT; HEK293; 4.115 nM).
For CRBN/Zinc finger protein Helios; HiBiT; HEK293; 111.1 nM, 1 h: protein remaining read 46.9% and 47%.
For CRBN/Zinc finger protein Helios; HiBiT; HEK293; 1.372 nM: protein remaining read 45.2% and 48.7%.
It gave 85.1% and 82.6% for protein remaining (CRBN/Zinc finger protein Helios; HiBiT; HEK293; 4.115 nM, 0.5 h).
The protein remaining was 14.7% and 17.3% (CRBN/Zinc finger protein Helios; HiBiT; HEK293; 111.1 nM, 3 h).
It gave 97.3% and 92.7% for protein remaining (CRBN/Zinc finger protein Helios; HiBiT; HEK293; 0.05081 nM).
CRBN/Zinc finger protein Helios; HiBiT; HEK293; 0.01694 nM, 0.5 h — protein remaining: 93.2% and 93.1%.

Block 3
SMILES: C#CCN1C(=O)C(O)(C(=O)O)Oc2cc(F)ccc21 (centres unmarked)
Organism: Arabidopsis thaliana
Strain: Col-0
It gave 2.16 cm and 2.13 cm and 2.14 cm and 2.2 cm and 2.23 cm for hypocotyl length (3.125 µg/mL, seed germination, single repetition).
50 µg/mL, seed germination, repetition mean — hypocotyl length: 0.919 cm.
The hypocotyl length was 1.43 cm (25 µg/mL, seed germination, repetition mean).
The hypocotyl length was 1.89 cm and 1.93 cm and 1.9 cm and 1.98 cm and 1.95 cm (6.25 µg/mL, seed germination, single repetition).
For 100 µg/mL, seed germination, repetition mean: hypocotyl length read 0.101 cm.
It gave 0.1 cm and 0.11 cm and 0.07 cm for hypocotyl length (100 µg/mL, seed germination, single repetition).
The hypocotyl length was 2.17 cm (3.125 µg/mL, seed germination, repetition mean).
12.5 µg/mL, seed germination, repetition mean — hypocotyl length: 1.7 cm.
The hypocotyl length was 1.38 cm and 1.44 cm and 1.39 cm and 1.51 cm and 1.4 cm (25 µg/mL, seed germination, single repetition).

Further values, each from its own experiment
`CCN1/C(=C/C=C2\CCCC(/C=C/C3=[N+](CC)c4ccccc4C3(C)C)=C2NCCCCCCCCN2CCC(Nc3nc4ccccc4n3Cc3ccc(F)cc3)CC2)C(C)(C)c2ccccc21`: “log2 fold change” -1.02 (U-87 MG; refers to: COL4A2 mRNA; concentration not given; baseline: DMSO).

Repeated from above (block 2):
CRBN/Zinc finger protein Helios; HiBiT; HEK293; 0.1524 nM, 0.5 h — protein remaining: 89.8% and 103%.
CRBN/Zinc finger protein Helios; HiBiT; HEK293; 111.1 nM — protein remaining: 8.8% and 10.5%.
The protein remaining was 34.2% and 35.8% (CRBN/Zinc finger protein Helios; HiBiT; HEK293; 1.372 nM, 6 h).
The protein remaining was 23.5% and 26.2% (CRBN/Zinc finger protein Helios; HiBiT; HEK293; 4.115 nM).
